Experimental data gathered from unrelated publications.
Compare with care: the assays were run in different laboratories. Several values in a cell are separate wells, animals, samples, runs or records. Numbers after ± are the reported error.
NNMT SAM-bound: Nicotinamide N-methyltransferase, SAM-bound (NNMT, Homo sapiens, UniProt P40261)
MBLAC2: MBLAC2 (Homo sapiens, UniProt Q68D91)

CCc1nc2cc3ccccc3cc2cc1C(=O)N[C@@H](CCCCN)C(=O)N[C@@H](C/C=C/C[C@H](NC(=O)[C@H](CCCCN)NC(=O)c1cc2cc3ccccc3cc2nc1CC)C(=O)N1CCC[C@H]1C(=O)NCCCN)C(=O)N1CCC[C@H]1C(=O)NCCCN
Kd (HIV-1 frameshift site RNA; SPR): 0.0804 µM

CC(C)C[C@@H]1NC(=O)[C@H](Cc2ccc(O)cc2)NC(=O)[C@H](CCCNC(=N)N)NC(=O)[C@H](C)NC(=O)[C@H]([C@@H](C)O)NC(=O)[C@H](Cc2ccc(O)cc2)NC(=O)CSC[C@@H](C(N)=O)NC(=O)[C@H](CCCCN)NC(=O)[C@H](Cc2ccc(O)cc2)NC(=O)[C@H](Cc2c[nH]cn2)NC(=O)[C@H](CC(C)C)NC(=O)[C@H]([C@@H](C)O)NC(=O)CNC(=O)[C@H](CC(C)C)NC(=O)[C@H]([C@@H](C)O)NC1=O
Kd (Huntingtin, residues 97-2069 (HTT, Homo sapiens, UniProt P42858); binding, fluorescence polarization; N-terminal domain): 0.0085 µM

COC1(C2=NCCN2)COc2ccccc2O1 (stereo not drawn)
Kd (Adra2a (Mus musculus, UniProt Q01338); [3H]compound saturation binding; HEK293 membranes, HA-tagged receptor): 0.00343 ± 0.00058 µM

Cn1ncc2cc(-c3cncc(Cl)c3N3CCC4(CCNC4=O)CC3)ccc21
Kd (NUDT1 (Homo sapiens, UniProt P36639); cell-free assay; lysate): 5.28 µM

CCCC[C@@H]1NC(=O)[C@H](Cc2ccc(O)cc2)NC(=O)[C@@H]2CCCN2C(=O)[C@H](CC(=O)O)NC(=O)[C@H](C)NC(=O)[C@H](Cc2ccccc2)NC(=O)[C@@H]2CSCCC(=O)N3CN(CN(C3)C(=O)CCSC[C@@H](C(=O)N[C@@H](C)C(N)=O)NC1=O)C(=O)CCSC[C@H](NC(C)=O)C(=O)N[C@@H](CC(C)(C)C)C(=O)N1CCC[C@H]1C(=O)N[C@@H](CCC(=O)O)C(=O)N[C@H](CCCCNC(=O)CCc1cn(CCOCCOCCOCCN(CCOCCOCCOCCC(=O)N[C@H]3CSCCC(=O)N4CN5CN(C4)C(=O)CCSC[C@H](NC(=O)[C@@H](CC(=O)O)NC(=O)[C@H](Cc4cccc6ccccc46)NC(=O)[C@@H]4CCCN4C3=O)C(=O)N[C@@H](CCSC)C(=O)N[C@@H](CCCCNC(=N)N)C(=O)N[C@@H](CC(=O)O)C(=O)N[C@@H](Cc3c[nH]c4ccccc34)C(=O)N[C@@H](CO)C(=O)N[C@@H]([C@@H](C)O)C(=O)N3CCC[C@H]3C(=O)N3C[C@H](O)C[C@H]3C(=O)N[C@@H](Cc3c[nH]c4ccccc34)C(=O)N[C@H](C(N)=O)CSCCC5=O)CCOCCOCCOCCn3cc(CCC(=O)NCCCC[C@H]4NC(=O)[C@H](CCC(=O)O)NC(=O)[C@@H]5CCCN5C(=O)[C@H](CC(C)(C)C)NC(=O)[C@@H](NC(C)=O)CSCCC(=O)N5CN6CN(C5)C(=O)CCSC[C@H](NC(=O)[C@H](Cc5ccc(O)cc5)NC(=O)[C@@H]5CCCN5C4=O)C(=O)N[C@@H](Cc4ccccc4)C(=O)N[C@@H](C)C(=O)N[C@@H](CC(=O)O)C(=O)N4CCC[C@H]4C(=O)N[C@@H](Cc4ccc(O)cc4)C(=O)N[C@@H](CCCC)C(=O)N[C@H](C(=O)N[C@@H](C)C(N)=O)CSCCC6=O)nn3)nn1)C(=O)N1CCC[C@H]1C(=O)N[C@@H](Cc1ccc(O)cc1)C(=O)N2
Kd (Nectin-1 (NECTIN1, Homo sapiens, UniProt Q15223); SPR): > 0.2 µM

COC1CN([C@H]2CC[C@H]([C@@]3(C)Oc4c(Cl)cc(C(=O)NCc5c(SC)cc(C)[nH]c5=O)c(C)c4O3)CC2)C1
log2 fold change (RNA-seq, item: PKIB mouse homolog; mouse, HT-1376 xenograft, whole blood; dose not given; reference: vehicle): 0.835

Cc1cc(OCc2ccccc2Br)c(C)c2c1CCC1C(CN(C)C)C(=O)OC21 (stereo not drawn)
Kd (UBE2D3 (Homo sapiens, UniProt P61077); binding, MST): 0.0127 µM

C=CC(=O)N1C[C@H](C)N(c2nc(OC[C@@]34CCCN3C[C@H](F)C4)nc3c(F)c(-c4ccc(F)c5sc(N)c(C#N)c45)c(C(F)(F)F)cc23)C[C@H]1C
Kd (GTPase KRas, GppNHp-bound (KRAS, Homo sapiens, UniProt P01116, G12D)): 7.2 µM and 7.25 µM

CCc1cc(NC)ncc1C(N)=O
Kd (NNMT SAM-bound; substrate, SPR; 20 °C, with: SAM): 50.1 µM

NCCCC[C@H](NC(=O)[C@H](C/C=C/C[C@H](NC(=O)[C@@H]1CCCN1)C(=O)N[C@@H](CCCCN)C(=O)NCCCN)NC(=O)[C@@H]1CCCN1)C(=O)NCCCN
Kd (HIV-1 frameshift site RNA; SPR): 0.302 µM

NC(N)=NN=Cc1cccc(C=NN=C(N)N)c1
Kd (VPS26A/VPS35/VPS29 (Homo sapiens, UniProt O75436+Q96QK1+Q9UBQ0); binding): 8.3 ± 0.8 µM

CCC1C=CC2CCN(C(=O)C3CCC4C=CC5(CCCN5C(=O)C(Cc5ccccc5Cl)NC(C)=O)C(=O)N43)C2C(=O)N1CC(=O)OC (stereo not drawn)
Kd (YAP1 (Homo sapiens, UniProt P46937); binding, NMR): 460 µM

CC[C@H](C)[C@@H]1NC(=O)[C@@H](NC(=O)[C@H](C)N)CSCCC(=O)N2CN3CN(C2)C(=O)CCSC[C@H](NC(=O)[C@H](Cc2ccc(O)cc2)NC(=O)[C@H](CCC(N)=O)NC(=O)CNC(=O)[C@H](CCC(=O)O)NC(=O)[C@H](CCC(=O)O)NC1=O)C(=O)N[C@@H](Cc1ccccc1)C(=O)N[C@@H](C)C(=O)N[C@@H](CC(=O)O)C(=O)N1CCC[C@H]1C(=O)N[C@@H](Cc1ccc(O)cc1)C(=O)N[C@@H](CCSC)C(=O)N[C@H](C(=O)N[C@@H](C)C(N)=O)CSCCC3=O
Kd (Tumor necrosis factor receptor superfamily member 9 (Homo sapiens, UniProt Q07011); binding, SPR): 0.0406 µM

COc1cccc2c(=O)c(CO)coc12
Kd (NNMT SAM-bound; SPR/GCI; with: SAM): 3.16 µM

Cc1c[nH]c2nccc(-c3ccc(C(=O)N[C@@H]4c5c(F)cc(C(F)F)cc5C[C@@H]4O)cn3)c12
Kd (Tyrosine-protein kinase JAK1, JH2 (JAK1, Homo sapiens, UniProt P23458); binding, competition with immobilised ligand): 2.3 µM

CC(C)[C@H]1NC(=O)[C@@H](CCCCN)NC(=O)[C@@H](C)NC(=O)[C@@H](CCCCN)NC(=O)c2cc3cc(c2)C(=O)NC[C@@H](C(=O)N[C@@H](CCCCN)C(N)=O)NC(=O)[C@H](Cc2ccc(O)cc2)NC(=O)[C@@H]([C@H](C)O)NC(=O)[C@H](C)NC(=O)[C@H](Cc2ccc(F)cc2)NC(=O)[C@H](CCCCNC3=O)NC1=O
Kd (GNAI1 (Homo sapiens, UniProt P63096); binding, SPR; pH 7.4): 9.08 µM

C=CC(=O)Nc1cccc(Cn2ncc3cnc(Nc4cnn(CCOC)c4)nc32)c1
percent of control (MYO3A human; binding, KINOMEscan; 100 nM; lower = stronger binding): 100%

CCc1nc2cc3ccccc3cc2cc1C(=O)N1CCC[C@H]1C(=O)N[C@@H](C/C=C\C[C@H](NC(=O)[C@@H]1CCCN1C(=O)c1cc2cc3ccccc3cc2nc1CC)C(=O)N[C@@H](CCCCN)C(=O)NCCCN)C(=O)N[C@@H](CCCCN)C(=O)NCCCN
Kd (HIV-1 frameshift site RNA; SPR): 1.14 µM

CC(O)CN1CC(=O)C(c2nc(-c3ccc(Cl)cc3)cs2)=C1N (stereo not drawn)
Kd (Hepatitis A virus cellular receptor 2 (Homo sapiens, UniProt Q8TDQ0); microscale thermophoresis): 0.51 µM

CC(=O)N[C@H]1[C@@H](OC(=O)NCCOCCOCCNC(=O)O[C@H]2O[C@H](CO)[C@@H](O)[C@H](O)[C@H]2NC(C)=O)O[C@H](CO)[C@@H](O)[C@@H]1O
Kd (wheat germ agglutinin; ITC; pH 7.0, 298 K): 1.92 ± 0.06 µM

Nc1ncc(-c2cc(-c3cnn(CC(F)(F)F)c3)ncc2F)nc1C(=O)NC1CNCC(F)C1 (stereo not drawn)
remaining binding (QSK; KINOMEscan competition binding; 1 µM; reference: DMSO control): 85%

CCc1nc2cc3ccccc3cc2cc1C(=O)N1CCC[C@H]1C(=O)N[C@@H](CCC/C=C/CCC[C@H](NC(=O)[C@@H]1CCCN1C(=O)c1cc2cc3ccccc3cc2nc1CC)C(=O)N[C@@H](CCCCN)C(=O)NCCCN)C(=O)N[C@@H](CCCCN)C(=O)NCCCN
Kd (HIV-1 frameshift site RNA; SPR): 2.62 µM

Cc1cccc2c1N(C(=O)n1ccnn1)CC2
Kd (KAI2 (Arabidopsis thaliana, UniProt Q9SZU7, L218A); ITC; L218A mutant): 10.8 µM and 12.5 µM and 9.35 µM

CC(/C=C/C(=O)NO)=C\[C@@H](C)C(=O)c1ccc(N(C)C)cc1
Kd (MBLAC2; inhibitor, competition pulldown; SW620 and MV4-11 lysate; 1 h): 1.19 µM

O=C(NC1CCCc2c1[nH]c1ccccc21)c1n[nH]c2c1CCC2 (stereo not drawn)
Kd (Lysine-specific demethylase PHF2 (Homo sapiens, UniProt O75151); binding, fluorescence): 49 µM

NS(=O)(=O)c1cc(C(=O)NCCCC(=O)O)c(NC2CCCCC2)cc1Cl
Kd (CA6 (Homo sapiens, UniProt P23280); pH 7): 110 µM

O=C(NO)c1cnc(NC2(c3cccc(F)c3)CCCCC2)nc1
Kd (MBLAC2; inhibitor, competition pulldown; SW620 and MV4-11 lysate; 1 h): 0.739 µM

Cc1ncsc1-c1ccc(C(C)NC(=O)C2CC(O)CN2C(=O)C(NC(=O)CCCCCCCCCCN2CCCC(Nc3ncc(Cl)c(Nc4ccccc4S(=O)(=O)C(C)C)n3)C2)C(C)(C)C)cc1 (stereo not drawn)
log2 fold change (22Rv1; RNA-seq, item: ZNF502 mRNA; concentration not given; reference: DMSO): -1.89

Cc1nn(-c2cccc(N)c2)c(=O)c2cnc(Nc3ccc(N4CCNCC4)cc3)nc12
IC50 (Aurora kinase C (AURKC, Homo sapiens, UniProt Q9UQB9); enzyme activity, inhibitor): 3.42 µM

CNc1cc(F)c(C(N)=O)cn1
Kd (NNMT SAM-bound; substrate, SPR; 20 °C, with: SAM): 7.94 µM

CNS(=O)(=O)Nc1nccc(Cc2c(C)c3ccc(Oc4ncccc4F)cc3oc2=O)c1F
IC50 (PE/CA-PJ34; cell viability, CellTiter-Glo; 7 days): 0.342 µM

Nc1ncnc2c1ncn2[C@@H]1O[C@H](CSCC[C@H](N)C(=O)O)[C@@H](O)[C@H]1O
Kd (NNMT (Homo sapiens, UniProt P40261); SPR; with: SAM): 39.8 µM

CCCCCCCO[C@H]1O[C@H](CO)[C@@H](O)[C@H](O)[C@@H]1O
Kd (Type 1 fimbrin D-mannose specific adhesin, lectin domain (fimH, Escherichia coli K-12, UniProt P08191); binding, isothermal titration calorimetry; 15 °C, individual titrations): 0.0216 µM
